# Published values from different studies.
# Lines come from different studies, so protocols differ. ± marks the error that the study gave.
SMILES,target or system,test,system,conditions,how to read,quantity,value
CC1CCCCN1CCCNC(=O)c1cc(Sc2cccc(Cl)c2)nc2ccccc12 (stereo not drawn),Vero-E6,CellTiter-Glo ATP,,"72 h, second round 5-point","baseline: DMSO 0%, hyamine -100%, more negative, more toxic",maximum response,-11.8%
Cc1cc(C(=O)NC(C)(C)COc2cccc3c2C(N)=NS(=O)(=O)N3)cc(C)n1,Salmonella typhimurium,"Ames test, initial",TA1537,150 µg/plate,baseline: solvent control,revertant ratio,1.2
COc1cccc(-c2n[nH]c(SCc3ccccn3)n2)c1OC,Salmonella typhimurium,"Ames test, preincubation",TA1535,"1.0 mg/plate, with rat liver S9",,revertant colonies per plate,11
O=NN1CCN(C2CCCC2)CC1,Salmonella typhimurium,"mutagenicity, Ames plate incorporation",TA98,"500 µg/plate, 3 d, without S9, methanol",,revertant colonies per plate,25.7 ± 11
O=[N+]([O-])c1ccc(N2CCC(NCCC(O)c3ccc(F)c4ccccc34)CC2)c(C(F)(F)F)c1 (stereo not drawn),Salmonella typhimurium,SOS/umu test,"TA1535/pSK1002, TGA medium","7.63e-06 mg/mL, 4 h, without S9",,survival,105%
CC(=O)N1CCC(C(=O)N2CCN3C(=O)c4cc(-c5ccccc5)ccc4NC(=O)C3C2)CC1 (stereo not drawn),Salmonella typhimurium,,TA1537,"158 µg/plate, added: rat liver S9",baseline: vehicle,fold increase in revertants,1.2
CC(Nc1nc(N2CCN(CCN)CC2)nc2ccccc12)c1ccccc1 (stereo not drawn),Vero-E6,CellTiter-Glo ATP,,"concentration not given, 72 h, second round 5-point","baseline: DMSO 0%, hyamine -100%, more negative, more toxic",cytotoxicity efficacy,-12.7%
O=[N+]([O-])c1ccc(N2CCN(CCC(O)c3ccc(F)cc3)CC2)c(C(F)(F)F)c1 (stereo not drawn),Salmonella typhimurium,"genotoxicity, SOS/umu test",TA1535/pSK1002,"0.125 mg/mL, 4 h, with S9, full range",,induction factor,1.1
CN(N=O)c1ccc(F)cc1,Salmonella typhimurium,"mutagenicity, Ames plate incorporation",TA100,"1500 µg/plate, 3 d, without S9, methanol",,revertant colonies per plate,165 ± 28
O=[N+]([O-])c1ccc(NC2CCNCC2)c(C(F)(F)F)c1,Salmonella typhimurium,"genotoxicity, SOS/umu test",TA1535/pSK1002,"0.008 mg/mL, 4 h, without S9, full range",,induction factor,0.6
CNC(=O)c1c(N(C)N=O)ncn1C,Salmonella typhimurium,plate incorporation,"TA100, water","500 µg/plate, without S9",,revertant colonies per plate,194 ± 26
N#C[C@@]1(n2ccc(N)nc2=O)O[C@H](CO)[C@@H](O)[C@H]1O,Salmonella typhimurium,,TA1537,"10 µM, without S9",,viability,98%

# A few entries again:
SMILES,target or system,test,system,conditions,how to read,quantity,value
O=[N+]([O-])c1ccc(N2CCC(NCCC(O)c3ccc(F)c4ccccc34)CC2)c(C(F)(F)F)c1 (stereo not drawn),Salmonella typhimurium,SOS/umu test,"TA1535/pSK1002, TGA medium","7.63e-06 mg/mL, 4 h, without S9",,survival,105%
